Assay results of several laboratories.
Compare with care: the assays were run in different laboratories. Numbers after ± are the reported error.
Organism: Escherichia coli

With `CCn1cc(C(=O)O)c(=O)c2ccc(C)nc21` the MIC was 3.12 to 6.25 mg/L (microbial growth, broth dilution; ATCC25922).
With `CC[C@H](C)[C@H](NC(=O)[C@H](CCCNC(=N)N)NC(=O)[C@H](CCCNC(=N)N)NC(=O)[C@@H]1CCCN1C(=O)[C@@H]1CCCN1C(=O)[C@H](CCCNC(=N)N)NC(=O)[C@@H]1CCCN1C(=O)[C@H](CCCNC(=N)N)NC(=O)[C@@H]1CCCN1C(=O)[C@H](CC(C)C)NC(=O)[C@H](Cc1ccc(O)cc1)NC(=O)[C@@H]1CCCN1C(=O)[C@@H]1CCCN1C(=O)[C@H](CCCCN)NC(=O)[C@H](CC(=O)O)NC(=O)[C@@H](N)C(C)C)C(=O)N[C@@H](Cc1ccc(O)cc1)C(=O)N[C@@H](CC(N)=O)C(=O)N[C@@H](CCCNC(=N)N)C(N)=O` the MIC was 25 ± 5 µM (T7 LysY/I, Mueller-Hinton broth; 18 h, 37 °C).
For `Oc1ccc(Cl)cc1C=Nc1ncn[nH]1`, the MIC was 64 mg/L (microbial growth, broth dilution; ATCC25922).
`CNC(C)C1CCC(N)C(OC2C(N)CC(N)C(OC3OCC(C)(O)C(NC)C3O)C2O)O1` (stereo not drawn) gave an MIC of 3.12 to 6.25 mg/L (broth microdilution; ATCC 25922; 16 to 20 h, 37 °C).
The MIC of `CCc1cc(=O)c2c(O)c3ccoc3c(OC)c2o1` is reported as over 256 mg/L (microbial growth, broth dilution; ATCC25; 19 h).
With `CC1(C)S[C@@H]2[C@H](NC(=O)C(C(=O)O)c3ccccc3)C(=O)N2[C@H]1C(=O)O` (stereo partly drawn) the MIC was 6.25 mg/L (broth microdilution; BW25113, Mueller-Hinton broth).
The MIC of `CCc1cc(=O)c2c(OCC(O)CNC(C)(C)C)c3ccoc3c(OC)c2o1` (stereo not drawn) is reported as over 256 mg/L (microbial growth, broth dilution; ATCC25; 19 h).
For `COc1ccc(C=Nc2ncn[nH]2)cc1`, the MIC was over 256 mg/L (microbial growth, broth dilution; ATCC25922).
`CCN(CC)c1ccc(C=NNC(=O)c2ccccc2)c(O)c1` gave an MIC of over 256 mg/L (microbial growth, broth dilution; ATCC25922).
With `O=[N+]([O-])c1ccc(C=Nc2ncn[nH]2)cc1` the MIC was 64 mg/L (microbial growth, broth dilution; ATCC25922).
`CCCCCCCCC[n+]1c2cc(N(C)C)ccc2cc2ccc(N(C)C)cc21.[Br-]` gave an MIC of 3.12 mg/L (microbial growth, broth dilution; ATCC25922).
The MIC of `CC(C)C1NC(=O)C(C(=O)NC(C(=O)NC2C(=O)N3C2SC(C)(C)C3C(=O)O)c2ccccc2)=C1O` (stereo not drawn) is reported as 50 mg/L (broth microdilution; BW25113, Mueller-Hinton broth; together with: 2,2'-bipyridyl 30 µg/mL).
The MIC of `CC[C@H](C)[C@H](NC(=O)[C@H](Cc1c[nH]cn1)NC(=O)[C@H](Cc1c[nH]cn1)NC(=O)[C@H](Cc1ccccc1)NC(=O)[C@@H](N)Cc1ccccc1)C(=O)N[C@@H](Cc1ccccc1)C(=O)N[C@@H](CCCNC(=N)N)C(=O)NCC(=O)N[C@@H](CCCCN)C(=O)N[C@H](C(=O)N[C@@H](Cc1c[nH]cn1)C(=O)N[C@H](C(=O)NCC(=O)N[C@@H](CCCCN)C(=O)N[C@H](C(=O)N[C@H](C(=O)N[C@@H](Cc1c[nH]cn1)C(=O)N[C@@H](CCCNC(=N)N)C(=O)N[C@@H](CC(C)C)C(=O)N[C@H](C(=O)N[C@H](C(=O)NCC(N)=O)[C@@H](C)O)C(C)C)[C@@H](C)CC)[C@@H](C)O)C(C)C)C(C)C` is reported as 3.1 mg/L (broth microdilution; ATCC 25922; 18 h, 37 °C).
For `CC1(C)S[C@@H]2[C@H](NC(=O)[C@H](N)c3ccccc3)C(=O)N2[C@H]1C(=O)O`, the MIC was 6.25 to 12.5 mg/L (broth microdilution; ATCC 25922; 16 to 20 h, 37 °C).
`gentamicin` gave an MIC of 0.5 mg/L (broth microdilution; K12; 18 h, pH 7).

A few entries again:
The MIC of `CC(C)C1NC(=O)C(C(=O)NC(C(=O)NC2C(=O)N3C2SC(C)(C)C3C(=O)O)c2ccccc2)=C1O` (stereo not drawn) is reported as 50 mg/L (broth microdilution; BW25113, Mueller-Hinton broth; together with: 2,2'-bipyridyl 30 µg/mL).
The MIC of `CCc1cc(=O)c2c(OCC(O)CNC(C)(C)C)c3ccoc3c(OC)c2o1` (stereo not drawn) is reported as over 256 mg/L (microbial growth, broth dilution; ATCC25; 19 h).
